Experimental data gathered from unrelated publications.
Each numbered part is a random draw from the data of one study; scales do not carry over between parts.
Chain of UniProt Q92985 (whole entry, unmodified, looked up): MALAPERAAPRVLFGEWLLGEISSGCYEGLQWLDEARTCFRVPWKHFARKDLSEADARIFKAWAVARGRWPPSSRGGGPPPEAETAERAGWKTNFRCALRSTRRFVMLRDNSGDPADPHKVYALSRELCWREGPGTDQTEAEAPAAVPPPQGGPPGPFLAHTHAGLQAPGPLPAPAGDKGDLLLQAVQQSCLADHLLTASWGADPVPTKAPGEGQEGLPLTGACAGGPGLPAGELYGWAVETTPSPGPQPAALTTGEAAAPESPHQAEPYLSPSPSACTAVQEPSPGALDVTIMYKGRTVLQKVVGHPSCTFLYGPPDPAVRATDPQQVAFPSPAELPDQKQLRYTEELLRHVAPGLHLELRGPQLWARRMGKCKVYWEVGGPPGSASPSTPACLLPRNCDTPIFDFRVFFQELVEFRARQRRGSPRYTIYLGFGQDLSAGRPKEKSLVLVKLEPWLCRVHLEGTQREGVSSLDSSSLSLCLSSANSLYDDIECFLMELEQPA

Sample 1
Target: Prothrombin, mature alpha-thrombin (F2, Homo sapiens, UniProt P00734)
Technique: aptamer microarray, sandwich
Form: DNA with 2'F-ANA
Medium: in vitro
Tested at: 200 nM
Notes: whole 15-mer aptamer, many near background
Added: Cy3 exosite-II aptamer, 400 nM
Reading: higher = stronger binding
| Sequence | mean fluorescence intensity |
| --- | --- |
| GGTTGGTGTGGTTGG (2'F-ANA at 8 11 13 14) | 209 a.u. |
| GGTTGGTGTGGTTGG (2'F-ANA at 2 3 6 7 10 12 14) | 319 a.u. |
| GGTTGGTGTGGTTGG (2'F-ANA at 3 6 7 12 14) | 700 a.u. |

Sample 2
Target: Histone acetyltransferase KAT6A, winged helix 1, GST fusion (KAT6A, Homo sapiens, UniProt Q92794, residues 1-85)
Technique: protein binding microarray
Form: double-stranded DNA, one strand shown
Medium: in vitro
Tested at: not given
Notes: 8-mer, flanks averaged, mean of 2 arrays, mostly near background
Relative to: not given
Reading: higher = stronger binding
Target sequence (chain): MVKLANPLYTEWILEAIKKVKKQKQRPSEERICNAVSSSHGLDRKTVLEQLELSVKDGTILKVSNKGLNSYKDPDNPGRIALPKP
| Sequence | E-score |
| --- | --- |
| GAGTACAA | -0.116 |
| CCAATTAC | -0.118 |
| AGTTCTCC | -0.0421 |

Further values, each from its own experiment
| Molecule | target | test | test system | conditions | scale | measurement | value |
| --- | --- | --- | --- | --- | --- | --- | --- |
| GCCTAGCACTTAGGAATGGACACTGGGTTAGTGCTAGTCTTGATTCGCTTGACGCTGCTG | Interferon regulatory factor 7, full length, phosphomimetic (IRF7, Homo sapiens, UniProt Q92985, residues 1-503, S471D/S472D/S475D/S476D/S477D/S483D/S484D/S487D) | protein-binding microarray | double-stranded DNA, one strand shown, in vitro | 2200 nM top, 60-bp whole probe, added: salmon DNA 0.4 mg/ml | relative to: random background probes, higher = stronger binding | fitted relative affinity | -0.563 z-score |
| PhoQ, residues 284 288 289 292 302 303 GANMMA | PhoP, residues 12 14 15 18 19 NNFVT (Escherichia coli, UniProt P23836) | Sort-seq, item: YFP reporter | E. coli | PhoQ-PhoP variant library, added: 10 µM Mg2+ | relative to: high Mg2+ state, higher = stronger signaling | fold induction | 1.36 |
| GCCTAGCACGACGATTTCGGGTTTCGAGAAGTGCTAGTCTTGATTCGCTTGACGCTGCTG | Interferon regulatory factor 5, full length, phosphomimetic (IRF5, Homo sapiens, UniProt Q13568-2, residues 1-514, S451D/S453D/S456D/S462D) | protein-binding microarray | double-stranded DNA, one strand shown, in vitro | 940 nM top, 60-bp whole probe, added: salmon DNA 0.4 mg/ml | relative to: random background probes, higher = stronger binding | fitted relative affinity | 2.3 z-score |

A few entries again (further values, each from its own experiment):
| Molecule | target | test | test system | conditions | scale | measurement | value |
| --- | --- | --- | --- | --- | --- | --- | --- |
| GCCTAGCACGACGATTTCGGGTTTCGAGAAGTGCTAGTCTTGATTCGCTTGACGCTGCTG | Interferon regulatory factor 5, full length, phosphomimetic (IRF5, Homo sapiens, UniProt Q13568-2, residues 1-514, S451D/S453D/S456D/S462D) | protein-binding microarray | double-stranded DNA, one strand shown, in vitro | 940 nM top, 60-bp whole probe, added: salmon DNA 0.4 mg/ml | relative to: random background probes, higher = stronger binding | fitted relative affinity | 2.3 z-score |
